Measured values gathered from unrelated publications.
Lines come from different studies, so protocols differ. ± marks the error that the study gave.
Oprk1: Kappa-type opioid receptor (Oprk1, Rattus norvegicus, UniProt P34975)
Chain of UniProt P34975 (whole entry, looked up): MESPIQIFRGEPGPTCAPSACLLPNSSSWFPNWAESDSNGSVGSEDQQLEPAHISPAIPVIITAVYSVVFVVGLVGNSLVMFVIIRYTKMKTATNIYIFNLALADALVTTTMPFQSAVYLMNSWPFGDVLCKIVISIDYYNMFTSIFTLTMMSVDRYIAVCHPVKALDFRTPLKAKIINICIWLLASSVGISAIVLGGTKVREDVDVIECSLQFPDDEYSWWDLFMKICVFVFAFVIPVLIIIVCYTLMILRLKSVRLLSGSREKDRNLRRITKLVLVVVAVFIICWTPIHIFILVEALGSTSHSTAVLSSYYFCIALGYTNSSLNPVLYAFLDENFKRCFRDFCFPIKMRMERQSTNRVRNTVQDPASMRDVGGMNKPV
Genome polyprotein 3C protease: Genome polyprotein, 3C protease (rhinovirus B14, UniProt P03303)
Chain of UniProt P03303 (whole entry, looked up): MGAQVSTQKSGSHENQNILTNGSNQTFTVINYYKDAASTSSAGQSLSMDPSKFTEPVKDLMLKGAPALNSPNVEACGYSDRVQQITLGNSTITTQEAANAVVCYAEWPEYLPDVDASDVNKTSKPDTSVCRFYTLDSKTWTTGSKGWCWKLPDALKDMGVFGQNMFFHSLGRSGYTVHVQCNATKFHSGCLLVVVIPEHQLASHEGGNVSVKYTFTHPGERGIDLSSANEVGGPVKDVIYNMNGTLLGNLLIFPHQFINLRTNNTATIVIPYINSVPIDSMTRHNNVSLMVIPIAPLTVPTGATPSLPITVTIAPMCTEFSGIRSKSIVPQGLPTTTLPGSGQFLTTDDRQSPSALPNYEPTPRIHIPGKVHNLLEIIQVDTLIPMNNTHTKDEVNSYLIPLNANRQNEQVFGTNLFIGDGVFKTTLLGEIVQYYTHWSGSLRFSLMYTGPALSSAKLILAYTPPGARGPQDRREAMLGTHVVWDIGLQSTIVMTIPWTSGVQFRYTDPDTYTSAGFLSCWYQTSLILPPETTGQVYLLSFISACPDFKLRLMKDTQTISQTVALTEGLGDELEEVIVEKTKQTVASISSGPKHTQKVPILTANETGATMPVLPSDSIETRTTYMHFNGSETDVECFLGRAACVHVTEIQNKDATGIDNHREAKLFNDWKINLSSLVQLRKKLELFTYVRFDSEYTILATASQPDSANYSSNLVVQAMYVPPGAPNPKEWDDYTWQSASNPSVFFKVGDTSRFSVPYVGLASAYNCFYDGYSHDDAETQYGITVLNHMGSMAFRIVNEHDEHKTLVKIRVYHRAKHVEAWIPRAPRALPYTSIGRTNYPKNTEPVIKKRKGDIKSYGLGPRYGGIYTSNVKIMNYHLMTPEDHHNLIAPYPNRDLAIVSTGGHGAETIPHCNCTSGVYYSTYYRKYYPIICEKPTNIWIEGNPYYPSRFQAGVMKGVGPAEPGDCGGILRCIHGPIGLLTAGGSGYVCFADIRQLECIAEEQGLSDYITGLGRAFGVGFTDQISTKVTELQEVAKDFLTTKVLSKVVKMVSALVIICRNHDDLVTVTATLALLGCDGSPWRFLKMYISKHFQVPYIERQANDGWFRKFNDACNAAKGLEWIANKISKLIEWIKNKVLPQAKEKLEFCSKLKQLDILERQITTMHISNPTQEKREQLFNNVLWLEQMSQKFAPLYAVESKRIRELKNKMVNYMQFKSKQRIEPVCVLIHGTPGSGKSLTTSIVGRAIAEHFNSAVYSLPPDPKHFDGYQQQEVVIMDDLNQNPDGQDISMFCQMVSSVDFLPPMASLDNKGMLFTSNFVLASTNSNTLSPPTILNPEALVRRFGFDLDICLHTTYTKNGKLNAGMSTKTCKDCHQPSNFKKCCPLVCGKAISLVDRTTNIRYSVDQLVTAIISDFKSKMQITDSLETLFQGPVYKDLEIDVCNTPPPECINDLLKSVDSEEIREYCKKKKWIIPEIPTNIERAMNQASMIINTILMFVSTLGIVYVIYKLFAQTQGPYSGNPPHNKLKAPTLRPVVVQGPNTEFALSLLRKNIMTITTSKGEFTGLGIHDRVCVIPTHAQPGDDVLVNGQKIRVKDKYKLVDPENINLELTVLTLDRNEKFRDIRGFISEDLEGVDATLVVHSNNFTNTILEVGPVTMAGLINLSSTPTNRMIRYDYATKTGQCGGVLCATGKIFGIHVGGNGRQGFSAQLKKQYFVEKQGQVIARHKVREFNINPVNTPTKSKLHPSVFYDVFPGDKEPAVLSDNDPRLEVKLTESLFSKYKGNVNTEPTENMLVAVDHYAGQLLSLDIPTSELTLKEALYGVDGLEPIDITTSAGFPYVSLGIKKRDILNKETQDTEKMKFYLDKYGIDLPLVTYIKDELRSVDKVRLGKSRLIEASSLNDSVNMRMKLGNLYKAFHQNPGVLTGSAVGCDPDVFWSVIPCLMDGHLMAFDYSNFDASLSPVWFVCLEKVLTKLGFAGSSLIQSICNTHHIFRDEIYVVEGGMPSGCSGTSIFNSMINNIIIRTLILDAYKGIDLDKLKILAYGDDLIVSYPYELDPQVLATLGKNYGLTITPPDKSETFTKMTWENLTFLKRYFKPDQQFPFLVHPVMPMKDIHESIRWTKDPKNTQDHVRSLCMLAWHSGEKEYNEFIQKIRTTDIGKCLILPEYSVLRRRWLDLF
Chain of UniProt P42574 (whole entry, looked up): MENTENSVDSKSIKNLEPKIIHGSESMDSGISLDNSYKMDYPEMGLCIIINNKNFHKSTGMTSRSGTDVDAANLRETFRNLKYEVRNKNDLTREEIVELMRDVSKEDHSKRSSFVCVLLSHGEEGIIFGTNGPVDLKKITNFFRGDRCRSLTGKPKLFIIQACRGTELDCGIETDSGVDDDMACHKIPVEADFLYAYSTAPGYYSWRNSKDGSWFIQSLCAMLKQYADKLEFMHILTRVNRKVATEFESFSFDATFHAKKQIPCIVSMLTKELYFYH
Chain of UniProt Q9UKS7 (whole entry, looked up): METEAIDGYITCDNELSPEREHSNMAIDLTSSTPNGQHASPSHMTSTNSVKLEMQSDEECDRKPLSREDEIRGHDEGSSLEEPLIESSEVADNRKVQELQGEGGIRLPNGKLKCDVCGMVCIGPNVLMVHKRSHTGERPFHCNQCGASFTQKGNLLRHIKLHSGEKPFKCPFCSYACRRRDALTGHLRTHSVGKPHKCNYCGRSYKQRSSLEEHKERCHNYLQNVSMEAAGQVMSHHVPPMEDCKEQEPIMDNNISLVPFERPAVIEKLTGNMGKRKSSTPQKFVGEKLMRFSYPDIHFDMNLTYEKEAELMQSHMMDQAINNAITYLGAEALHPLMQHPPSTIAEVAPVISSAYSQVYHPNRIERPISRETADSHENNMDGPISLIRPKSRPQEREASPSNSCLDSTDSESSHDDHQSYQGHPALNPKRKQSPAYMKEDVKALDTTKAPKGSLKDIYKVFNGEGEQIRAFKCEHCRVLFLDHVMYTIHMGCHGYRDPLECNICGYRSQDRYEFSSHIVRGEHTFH
Chain of UniProt Q12908 (whole entry, looked up): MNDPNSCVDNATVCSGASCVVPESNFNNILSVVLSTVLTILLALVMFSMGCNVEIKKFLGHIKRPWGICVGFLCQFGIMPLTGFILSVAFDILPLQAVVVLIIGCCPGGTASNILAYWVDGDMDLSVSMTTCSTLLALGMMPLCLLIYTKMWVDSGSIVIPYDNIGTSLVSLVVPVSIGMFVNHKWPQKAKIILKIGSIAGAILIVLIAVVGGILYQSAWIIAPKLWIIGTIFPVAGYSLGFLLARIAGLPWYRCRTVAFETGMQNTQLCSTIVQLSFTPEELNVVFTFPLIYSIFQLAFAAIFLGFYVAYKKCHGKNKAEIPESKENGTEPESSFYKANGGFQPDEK
Chain of UniProt P30550 (whole entry, looked up): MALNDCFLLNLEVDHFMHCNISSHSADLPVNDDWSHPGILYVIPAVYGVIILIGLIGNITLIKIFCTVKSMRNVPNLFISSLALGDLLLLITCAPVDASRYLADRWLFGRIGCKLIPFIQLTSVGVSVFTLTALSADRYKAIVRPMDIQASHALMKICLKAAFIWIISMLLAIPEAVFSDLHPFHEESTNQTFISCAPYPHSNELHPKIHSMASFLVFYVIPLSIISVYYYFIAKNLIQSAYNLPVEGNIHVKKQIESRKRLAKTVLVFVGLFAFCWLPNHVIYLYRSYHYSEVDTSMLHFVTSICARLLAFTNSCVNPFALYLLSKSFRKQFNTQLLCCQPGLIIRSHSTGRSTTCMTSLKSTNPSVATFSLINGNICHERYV
Chain of UniProt O42275 (whole entry, looked up): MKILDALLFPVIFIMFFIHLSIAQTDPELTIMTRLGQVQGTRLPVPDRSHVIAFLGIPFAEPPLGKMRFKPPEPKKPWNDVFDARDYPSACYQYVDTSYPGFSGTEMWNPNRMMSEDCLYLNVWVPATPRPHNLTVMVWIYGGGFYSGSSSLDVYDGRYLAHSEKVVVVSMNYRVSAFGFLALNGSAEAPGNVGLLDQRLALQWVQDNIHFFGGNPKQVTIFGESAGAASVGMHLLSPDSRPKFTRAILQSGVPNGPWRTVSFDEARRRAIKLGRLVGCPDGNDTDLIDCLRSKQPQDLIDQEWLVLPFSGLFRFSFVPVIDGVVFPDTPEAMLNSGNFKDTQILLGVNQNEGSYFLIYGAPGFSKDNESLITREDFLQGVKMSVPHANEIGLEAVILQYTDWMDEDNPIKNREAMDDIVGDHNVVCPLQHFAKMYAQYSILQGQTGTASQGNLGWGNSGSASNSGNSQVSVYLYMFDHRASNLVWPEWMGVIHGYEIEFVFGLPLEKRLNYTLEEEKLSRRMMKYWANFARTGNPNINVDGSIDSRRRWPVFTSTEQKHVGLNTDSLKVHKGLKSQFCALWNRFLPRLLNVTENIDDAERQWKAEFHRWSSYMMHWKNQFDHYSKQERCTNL
Chain of UniProt Q2FV99 (whole entry, looked up): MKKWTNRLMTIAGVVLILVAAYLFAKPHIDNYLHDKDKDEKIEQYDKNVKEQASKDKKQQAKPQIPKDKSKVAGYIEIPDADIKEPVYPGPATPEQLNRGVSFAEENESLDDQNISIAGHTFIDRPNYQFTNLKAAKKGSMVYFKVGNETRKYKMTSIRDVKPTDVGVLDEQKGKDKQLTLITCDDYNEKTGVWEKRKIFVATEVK

For `CC[C@H](C)[C@H](NC(=O)[C@H](CCC(N)=O)NC(=O)[C@H](CC(C)C)NC(=O)[C@@H](NC(=O)CNC(=O)[C@H](Cc1ccc(O)cc1)NC(=O)[C@H](CC(=O)O)NC(=O)[C@@H](NC(=O)[C@H](CO)NC(=O)CNC(=O)[C@H](CC(=O)O)NC(=O)[C@@H](NC(=O)[C@H](CC(N)=O)NC(=O)[C@H](CCCNC(=N)N)NC(=O)[C@H](CC(N)=O)NC(=O)[C@@H](NC(=O)[C@H](C)NC(=O)[C@H](CCC(N)=O)NC(=O)[C@@H](NC(=O)[C@H](CC(N)=O)NC(=O)[C@H](Cc1ccccc1)NC(=O)[C@H](CC(N)=O)NC(=O)[C@H](CO)NC(=O)[C@H](CCC(=O)O)NC(=O)[C@H](Cc1ccccc1)NC(=O)[C@H](CCCCN)NC(=O)[C@H](C)NC(=O)[C@H](C)NC(=O)[C@H](CO)NC(=O)[C@@H](NC(=O)[C@H](Cc1c[nH]c2ccccc12)NC(=O)[C@H](CC(N)=O)NC(=O)CNC(=O)[C@H](CC(C)C)NC(=O)[C@H](CO)NC(=O)[C@H](Cc1ccc(O)cc1)NC(=O)CNC(=O)[C@H](CCCNC(=N)N)NC(=O)[C@H](Cc1ccc(O)cc1)NC(=O)[C@H](CC(N)=O)NC(=O)[C@@H](N)CC(=O)O)C(C)C)[C@@H](C)O)[C@@H](C)O)[C@@H](C)O)[C@@H](C)O)[C@@H](C)CC)C(=O)O`, “cage assembly half-life” read 19.8 ± 1.9 s (Periplasmic serine endoprotease DegP (degP, Escherichia coli, UniProt P0C0V0, C83S/C95S/N322C); FRET; 5 µM, with: protein 500 nM).
`CC(=O)N[C@@H](CC(C)C)C(=O)N[C@@H](CCC(=O)O)C(=O)N[C@@H](Cc1c[nH]cn1)C(=O)N[C@@H](CC(=O)O)C(=O)Nc1ccc2c(C)cc(=O)oc2c1` gave a Vmax of 289 ± 33.2 RFU/min (Caspase-3 (CASP3, Homo sapiens, UniProt P42574); substrate cleavage, substrate, fluorogenic AMC release; enzyme 0.25 activity units/µL).
With `CN1C(=O)[C@H](CCC(=O)O)NC(=O)[C@H](Cc2ccc(O)cc2)NC(=O)[C@H](CCCNC(=N)N)NC(=O)[C@@H](Cc2ccc(O)cc2)NC(=O)CSC[C@@H](C(=O)N2CCC[C@H]2C(=O)N[C@@H](CCCCN)C(=O)N[C@@H](CS)C(N)=O)NC(=O)[C@H](CCC(=O)O)NC(=O)[C@H](Cc2ccc(O)cc2)N(C)C(=O)[C@H](CCCCN)NC(=O)[C@H](Cc2ccc(O)cc2)NC(=O)[C@@H]1Cc1ccc(O)cc1` the Tm was 48.7 °C (2,3-bisphosphoglycerate-independent phosphoglycerate mutase (gpmI, Staphylococcus aureus, UniProt Q6GIL5); thermal stability, thermal shift).
`CCN1CCCC1CNC(=O)c1cc(Br)cc(OC)c1O[11CH3]` (stereo not drawn) gave a koff of 0.000267 s⁻¹ (dopamine D2/D3 receptors; PET, multiple injection; rhesus monkey, brain).
For `C[C@H](NCc1ccccc1)C(=O)NCC(=O)NCC(=O)N[C@@H](Cc1ccccc1)C(=O)N[C@@H]1CC(=O)NC[C@@H](C(=O)N[C@@H](CCCNC(=N)N)C(=O)N2CCC[C@H]2C(=O)N[C@@H](CCCCN)C(N)=O)NC(=O)[C@H](CCCNC(=N)N)NC(=O)[C@H](CCCNC(=N)N)NC1=O`, “affinity fold decrease” read 5 fold (Oprk1; binding; reference: zyklophin).
For `CCCC[C@H](NC(=O)[C@H](Cc1ccccc1)NC(=O)[C@H](Cc1c[nH]cn1)NC(=O)CCNC(=O)[C@@H](NC(=O)[C@H](C)NC(=O)[C@H](Cc1c[nH]c2ccccc12)NC(=O)[C@H](CCC(N)=O)NC(=O)[C@H](N)Cc1ccc(O)cc1)C(C)C)C(N)=O`, “inositol phosphate level” read 21000 ± 2520 dpm (GRPR (Homo sapiens, UniProt P30550); inositol phosphate generation, agonist; hGRPR/BALB cells; 1 µM; higher = stronger stimulation).
The propidium displacement of `COc1ccc([C@@H]2N=NC(NCCc3c[nH]c4ccc(C)cc34)=NC2=O)cc1` is reported as 100% (ache (Electrophorus electricus, UniProt O42275); peripheral site binding; 3 µM).
For `C[C@@]12CC[C@@H]3c4ccc(O)c(Cl)c4CC[C@H]3[C@@H]1CCC2=O`, the inhibition was 18.5% (AKR1C1 (Homo sapiens, UniProt Q04828); enzyme activity, inhibitor, absorbance; 10 µM, pH 9).
With `CCN(Cc1ccccc1)C(=O)CCc1nc(CN2CCN(C(=O)Cc3ccc(OC)c(OC)c3)CC2)no1` the inactivation V1/2 was -97.3 ± 11.6 mV (Sodium channel protein type 11 subunit alpha (Scn11a, Rattus norvegicus, UniProt O88457); sodium current, whole-cell patch clamp; rat DRG neurons; 3 µM).
`CC(C)P(=S)(NP(=S)(C(C)C)C(C)C)C(C)C` — result for “number of binding sites”: 0.91 ± 0.06 (Alpha-amylase (Bacillus subtilis, UniProt P00691); fluorescence quenching; concentration not given, 310 K).
`CC(=O)N(C)[C@@H](Cc1ccccc1)C(=O)N[C@@H](Cc1ccccc1)C(=O)N[C@@H](Cc1c[nH]c2ccccc12)C(=O)N[C@@H](CCCNC(=N)N)C(=O)N[C@@H](CC(C)C)C(=O)N[C@@H](CCCNC(=N)N)C(=O)N[C@@H](CCCNC(=N)N)C(=O)N[C@H](C)C(=O)N[C@@H](CCCNC(=N)N)C(=O)N1CCC[C@H]1C(=O)N[C@@H](CCCCN)C(N)=O` — result for “adenylyl cyclase activity”: 105 ± 16% (Oprk1; agonist; CHO cells; 10 µM; reference: dynorphin A(1-13) amide).
With `O=C(c1cccc(-n2cccc2)c1)N1CCCN(S(=O)(=O)c2ccc(F)cc2)CC1` the Hill slope was 1.45 (Genome polyprotein 3C protease; protease activity, SAMDI-MS).
`C[C@]1(COC(=O)c2ccc(O)c(O)c2)[C@H](C(=O)O)N2C(=O)/C(=C/c3ccccn3)[C@H]2S1(=O)=O` gave a kinact/KI of 340000 M⁻¹ s⁻¹ (OXA-48 (Klebsiella pneumoniae, UniProt Q6XEC0); enzyme activity, inhibitor, absorbance).
For `CC(=O)Oc1ccc(COc2c(C)occc2=O)cc1`, the kobs was 245 ± 8 s⁻¹ (porcine liver esterase; conversion; 50 µM, pH 7.5, room temperature, with: PLE 0.178 U).
For `COc1cc(C=O)ccc1OCc1cccc(CO)n1`, “association rate constant kon” read 0.05 M⁻¹ s⁻¹ (Hemoglobin subunit alpha, with beta chain (HBA1, Homo sapiens, UniProt P69905); binding, cation-exchange HPLC-UV/Vis; 37 °C).
For `CC(=O)N[C@@H](Cc1ccccc1)C(=O)N[C@@H](Cc1ccccc1)C(=O)N[C@@H](Cc1c[nH]c2ccccc12)C(=O)N[C@@H](CCCNC(=N)N)C(=O)N[C@@H](CC(C)C)C(=O)N[C@@H](CCCNC(=N)N)C(=O)N[C@@H](CCCNC(=N)N)C(=O)N[C@H](C)C(=O)N[C@@H](CCCNC(=N)N)C(=O)N1CCC[C@H]1C(=O)N[C@@H](CCCCN)C(N)=O`, “adenylyl cyclase activity” read 108 ± 5 % control (Oprk1; agonist; CHO; 10 µM).
With `OB(O)c1ccc(OCc2ccccc2)nc1F` the ligand efficiency was 0.5 (Beta-lactamase (ampC, Escherichia coli K-12, UniProt P00811)).
The ΔΔG of `CC(C)C[C@H](NC(=O)[C@H](CC(C)C)NC(=O)[C@H](CC(N)=O)NC(=O)[C@H](Cc1c[nH]c2ccccc12)NC(=O)[C@H](Cc1ccc(O)cc1)NC(=O)[C@H](CCC(=O)O)NC(=O)[C@H](C)NC(=O)[C@@H](N)Cc1ccccc1)C(=O)O` is reported as 19.3 kJ/mol (MDM2 (Homo sapiens, UniProt Q00987); SPR competition binding; reference: PMI).
`Cn1cc(-c2cccc(CN3CCC4(CC3)COc3c4ccc4c3CN([C@H]3CCC(=O)NC3=O)C4=O)c2)cn1` gave a Dmax of 92% (CRBN/Zinc finger protein Helios (Homo sapiens, UniProt Q96SW2+Q9UKS7); degrader, flow cytometry; human primary regulatory T cells; 6 h).
`CC(CCC(=O)NC(CCC(=O)Nc1cccnc1)C(=O)O)C1CCC2C3C(O)CC4CC(O)CCC4(C)C3CCC12C` (stereo not drawn) has a normalized Jmax/Kt of 0.281 µM⁻¹ (SLC10A2 (Homo sapiens, UniProt Q12908); transport efficiency, substrate, LC-MS/MS; ASBT-MDCK).
`CCOC(=O)/C=C/[C@H](C[C@@H]1CCNC1=O)NC(=O)[C@H](Cc1ccccc1)NC(=O)[C@H](COC(C)(C)C)NC(=O)OCc1ccccc1`: “FLuc reporter expression” “increased” (Genome polyprotein 3C protease; protease activity, cell-based reporter; human rhinovirus 14).
With `CN(C)CCCN1c2ccccc2Sc2ccc(Cl)cc21` the Stern-Volmer constant was 6300 L/mol (srtA (Staphylococcus aureus, UniProt Q2FV99); binding, fluorescence quenching).
`Cc1nc(=O)c(C[n+]2csc(CCO)c2C)c[nH]1` has a ΔH of -18 ± 6 kJ/mol (nicotinamide riboside transporter PnuT (Shewanella woodyi, UniProt B1KPL9); isothermal titration calorimetry; 25 °C).
With `CCCCCCCCCCCCCCCc1ccc(C(O)P(=O)(O)O)cc1` (racemic) the Ki′ was 0.7 µM (Autotaxin (ENPP2, Homo sapiens, UniProt Q13822); enzyme substrate complex).

Excerpt of the above:
With `O=C(c1cccc(-n2cccc2)c1)N1CCCN(S(=O)(=O)c2ccc(F)cc2)CC1` the Hill slope was 1.45 (Genome polyprotein 3C protease; protease activity, SAMDI-MS).
`C[C@]1(COC(=O)c2ccc(O)c(O)c2)[C@H](C(=O)O)N2C(=O)/C(=C/c3ccccn3)[C@H]2S1(=O)=O` gave a kinact/KI of 340000 M⁻¹ s⁻¹ (OXA-48 (Klebsiella pneumoniae, UniProt Q6XEC0); enzyme activity, inhibitor, absorbance).
For `CC(=O)Oc1ccc(COc2c(C)occc2=O)cc1`, the kobs was 245 ± 8 s⁻¹ (porcine liver esterase; conversion; 50 µM, pH 7.5, room temperature, with: PLE 0.178 U).
For `COc1cc(C=O)ccc1OCc1cccc(CO)n1`, “association rate constant kon” read 0.05 M⁻¹ s⁻¹ (Hemoglobin subunit alpha, with beta chain (HBA1, Homo sapiens, UniProt P69905); binding, cation-exchange HPLC-UV/Vis; 37 °C).
